Experimental data from different studies.
Numbered parts are unrelated; each lists some results of a single study. Positions count from the first letter of the parent shown.

Block 1
Target: Sal-like protein 4, full length isoform B (SALL4, Homo sapiens, UniProt Q9UJQ4-2, residues 1-616)
Method: universal PBM
Molecule type: double-stranded DNA, one strand shown
Medium: in vitro
Tested at: not given
Notes: 8-mer, flanks averaged, mean of replicates
Reading: higher = stronger binding
Oligonucleotide	E-score
GCAGCACA	-0.114
AAGCATCG	0.0121
CTTCAGAA	-0.0239
GACCCACA	0.0137
ACGCACAA	0.0957
CGGGCGGA	-0.352
GGGCAGCA	-0.352
AGTAAGAT	0.247
TACCGCCA	0.0031
AGTCGAGA	0.0693
CTAGAGGC	-0.11
CAAGCGTG	0.0535
GGGATCGA	-0.154
AGATCACG	-0.0433
CGGAGAGA	-0.28
ACCCACAC	-0.0781

Block 2
Target: CCNE1, cyclin fold, Cln2 fusion (human)
Method: yeast growth competition, sequencing
Medium: yeast
Notes: strong parent motif
Baseline: not given
Reading: higher = stronger binding
Starting sequence: CDKN1B docking peptide (human); PSACRNLFGPVDH
Variant	normalised enrichment score
PSACRNDFGPVDH [L7D]	0.44
PSACRNLFGPVDD [H13D]	2.77
PSACRNLFGPVDQ [H13Q]	3.09
PSACRNLFGPVFH [D12F]	2.35
PSACRNLLGPVDH [F8L]	0.00191
PSACRNLGGPVDH [F8G]	-0.364
PSACRSLFGPVDH [N6S]	1.42
PSAVRNLFGPVDH [C4V]	3.15
PSACKNLLGPVDH [R5K F8L]	0.211
PRACRNLFGPVDH [S2R]	2.9
PSACRNLYGPVDH [F8Y]	-0.0352
PSGCRNLFGPVDH [A3G]	0.767
PSALRNLFGPVDH [C4L]	1.14
PSAFRNLFGPVDH [C4F]	0.976
PSACRNKFGPVDH [L7K]	0.31
PSACHNLFGPVDH [R5H]	0.276
PSACRMLFGPVDH [N6M]	3.09

Block 3
Target: Histone acetyltransferase KAT6A, winged helix 2, GST fusion (KAT6A, Homo sapiens, UniProt Q92794, residues 85-181)
Method: protein binding microarray
Molecule type: double-stranded DNA, one strand shown
Medium: in vitro
Tested at: not given
Notes: 8-mer, flanks averaged, mean of 2 arrays, mostly near background
Baseline: not given
Reading: higher = stronger binding
Target sequence (chain): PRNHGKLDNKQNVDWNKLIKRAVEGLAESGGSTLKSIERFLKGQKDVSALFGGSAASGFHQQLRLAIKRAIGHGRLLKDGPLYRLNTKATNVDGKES
Oligonucleotide	E-score
GTTAAAAC	-0.0328
AACTTGGT	-0.0783
ACGGTGCG	0.13
CGGCCTCC	-0.0419
CTAACCAG	-0.0247
CCGCACCC	0.117
AGTCGGAC	-0.144
CCATTAAC	-0.00844
CCTTGCCG	0.149
CGGCCGAC	0.166
CAATGCTC	-0.00284
ATAGACCG	0.0525
CGCTTCTC	0.0513
CACACCCG	0.0767
TAATCTAA	0.0735
AACGACCG	-0.0704
AATACCAG	-0.0419
CATCTGCA	-0.0276
ACCCATGA	-0.279
ACACGAGG	0.0132
ATTAAACG	-0.096
AAATGAAA	0.215
GCCTCCAC	0.0657
CCCGCTAC	0.0933

Block 4
Target: RNA binding protein fox-1 homolog 2, RRM domain, GST-SBP tag (RBFOX2, Homo sapiens, UniProt O43251-10, residues 100-194)
Method: RNA Bind-n-Seq
Molecule type: RNA
Medium: in vitro
Tested at: 365 nM
Notes: natural RNA segment, single round, ends assumed
Baseline: no-protein control
Reading: higher = stronger binding
Residues (chain): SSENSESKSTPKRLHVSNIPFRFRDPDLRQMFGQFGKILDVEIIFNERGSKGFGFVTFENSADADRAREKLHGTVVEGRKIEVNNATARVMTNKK
Oligonucleotide	RBNS enrichment (R)
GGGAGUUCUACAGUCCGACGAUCGAGAAAUCCCAGGCCAGAACAGCUGGAGCUCUUAUGUAGCACACAAGGCUCGAACCAGCACCGAAUCAGCCCCUCUGCCCGCCCCACUCUACUGUGACUUUGAUUCAAGGUGGAAUUCUCGGGUGCCAA	0.271
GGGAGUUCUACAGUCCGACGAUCUUUUAGGAACUGACAUGAUAAGGUGGUUCUUUCAUAACUCUAAUGCCAUCCAACAUAGCCCUGGGAGAGGCAUGUUAGGUUUCAGAGAUUUUCUCCAUGGAGCAAGGUGCUGGAAUUCUCGGGUGCCAA	0.943
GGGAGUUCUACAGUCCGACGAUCGUCUCGGCCAGUGCCGUGGCCUGCUGGGAAGGGUCAGAGUCCUCACUGUCCCCCGUCUGUCCAGCAAUAGUCUGUCCAGAGACAAGCUUCUGUAGCGGCAGGGCUUCCGCUGGAAUUCUCGGGUGCCAA	0.245
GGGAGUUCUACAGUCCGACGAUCAAUGUUCCCUUCACAUUGAAUCAAAUACAAAUCAGCACAGAUACUGUUUCCAGUUUUUAAAAAUGUAAUAUUAUGGAAAGUAUUUUGCUUCAAGUUGAAUAUGUAUUGUGUGGAAUUCUCGGGUGCCAA	0.888
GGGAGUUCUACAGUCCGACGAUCCCUGCAAGGGACAGGAAGGUCUGAUUUGCAGGAUUUUUAGAGCAUUAAAAUAACUAUCAGGCAGAAGAAUCUUUCUUCUUGCCUAGGAUUUCAGCCAUGUGCGUGCGCUCUGGAAUUCUCGGGUGCCAA	0.487
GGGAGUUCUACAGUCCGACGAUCUGAUAUAUUUCAGCUUAAAGUUAUGUUAUUAUAUGUGGAUGUAAAUAUAGAUUUGGUGUUUUACAGUCUGGUGUCGUGGUUUUCAUUGUGUUCCUGCUGUGUGUGUGUGUUGGAAUUCUCGGGUGCCAA	1.69
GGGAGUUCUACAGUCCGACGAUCAACAAACUUUCUGAGGCUGGGUCAGCUUGCCUUAUAGUACUCCUCUCCUGCUAUGCCAACCUCAGGUGACCUGCUACCAUCCUCUAUACCUUCCUCCGCCAUCUGACUUCUGGAAUUCUCGGGUGCCAA	0.98
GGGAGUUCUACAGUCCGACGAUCGUGCGUUCAUGGUUUCUUCACUAACAGAGGAAUUAUGCUUUGCACUACGUCCCUCCAAGUGAAGACAGACUGUUUUAGACAGACUUUUUAAAAUGGUGCCCUACCAUUGAUGGAAUUCUCGGGUGCCAA	0.225
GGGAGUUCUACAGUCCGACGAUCGUGUGCCUCAAAAUUCCGGGAAUGGGCACACAAUUUUUCAGUCCCGUGAUCAGAUCCUGAAUCCCAACCCCCAAGACCUGAGGCCUCUGUCAUCUCCCCAUCCCCAGGCUUGGAAUUCUCGGGUGCCAA	0.552
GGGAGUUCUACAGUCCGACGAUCCACAUCAGGAGCAAAAUCACAGAUAUGAACUUAAUAAAAAUAAUGUUAUGGUUGGAGGUCACCACAACAUGAGCAACUGCAUUAAAGGAUCGCAGCAUCACGAAGGUGGAUGGAAUUCUCGGGUGCCAA	1.58
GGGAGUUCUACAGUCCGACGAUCCUCUCUUCUGGACCAAUUCCUUAACCUUGGGAAAGCUCAGGGCCUAGUAUCAGGGUGGGUGAUAGAACCCGAAAUGGAAGAGGACGGGAAAGUGCCUGGGCUGUGCUUGUUGGAAUUCUCGGGUGCCAA	3.2
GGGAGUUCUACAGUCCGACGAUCAGGCAGUGCCCUUUCCUCCCACUUUUCCUCCCCCAUAGCCACAGGCCUCUGCUCCUGCUCCUGCCUGCAUGUUCUCUCUGUUGUUGGAGCCUGGAGCCUUGCUCUCUGGGUGGAAUUCUCGGGUGCCAA	4.65

Block 5
Target: Fragile X messenger ribonucleoprotein 1, C-terminal low-complexity region (Fmr1, Mus musculus, UniProt P35922)
Method: RNA Bind-n-Seq
Molecule type: RNA
Medium: in vitro
Tested at: 200 nM
Notes: whole 134-nt RNA, ends assumed
With: 150 mM KCl
Baseline: input library
Reading: higher = stronger binding
Oligonucleotide	log2 enrichment
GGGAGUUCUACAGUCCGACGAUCGCAGGAAGUAAAAACAAAUGGAAAAGCUUCGGAUAGUGGCAGGGGUGGGGGUUGCUAAGGAAAGGGUGGGAUGGGAGUGGGUAAAGAGUUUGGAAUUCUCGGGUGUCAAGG	0.133
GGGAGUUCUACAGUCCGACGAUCACCAUGCAGGUGGGCAUCUUUGGGAAGUGGGGCAAGGGGGGGAUAGGGAGGGGGGUAACACUUUGGGAACAGGUGGUCCCACGUCGUUUCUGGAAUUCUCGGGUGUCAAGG	0.757
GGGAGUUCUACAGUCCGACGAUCCCUGUGCUACACAUCGUAUGUACCGAAUCGGGCCCCCCGGGGCCCCCCGGGGCCCCCCGGGAAAGUAUUAUGUUACGCCGUUCGGAUCUGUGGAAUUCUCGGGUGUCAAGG	-0.866
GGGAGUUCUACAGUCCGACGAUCACCAUGCACGUGGGCAUCUUUGGGAAGUGGGGCAAGGGGGGGAUAGGGAGGGGGGUAACACUUUGGGAACAGGUGGUCCCAGGUCGUUUCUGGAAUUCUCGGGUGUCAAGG	0.787
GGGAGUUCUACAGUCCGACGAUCAAGUCCUGUGCUACACAUCGUAUGUACCGAAUCGGGAAAAAGGGUGGGAAAAAGGGAAAGUAUUAUGUUACGCCGUUCGGAUCUGCACUUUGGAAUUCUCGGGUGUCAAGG	0.395
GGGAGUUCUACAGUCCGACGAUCGCGGGAAGUAAAAACAAAUGGAAAUGCUUCGGAUAGUGGCAGGGGUGGGGGUUGCUAAGGAAAGGGUGGGAUGGGAGUGGGUAAAGAGUUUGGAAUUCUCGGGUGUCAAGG	0.621
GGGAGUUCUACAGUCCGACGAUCUCCUGUGCUACACAUCGUAUGUACCGAAUCGGGGUUUUUUGGUUUUUUGGUUUUUUGGGGAAAGUAUUAUGUUACGCCGUUCGGAUCUGCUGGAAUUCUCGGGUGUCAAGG	-0.175
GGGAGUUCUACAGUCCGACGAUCAAGUCCUGUGCUACACAUCGUAUGUACCGAAUCGGGUUUUGGGUUUUGGUUUUGGGAAAGUAUUAUGUUACGCCGUUCGGAUCUGCACUUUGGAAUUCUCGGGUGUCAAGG	-0.277
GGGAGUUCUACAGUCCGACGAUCUCAAGUCCUGUGCUACACAUCGUAUGUACCGAAUCGGAAAAAAAGGAGGUUUGGAAAGUAUUAUGUUACGCCGUUCGGAUCUGCACUUCCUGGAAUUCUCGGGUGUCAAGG	-0.996
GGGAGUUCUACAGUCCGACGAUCUCAAGUCCUGUGCUACACAUCGUAUGUACCGAAUCGGAAGGGGAAGGGGAAGGGGAAAGUAUUAUGUUACGCCGUUCGGAUCUGCACUUCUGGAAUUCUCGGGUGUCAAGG	0.736
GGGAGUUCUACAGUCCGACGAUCUCAAGUCCUGUGCUACACAUCGUAUGUACCGAAUCGGUUUUUGGAAAAAGGAGGAAAGUAUUAUGUUACGCCGUUCGGAUCUGCACUUCCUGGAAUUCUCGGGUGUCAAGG	-0.466
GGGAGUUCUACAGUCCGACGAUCAAGUCCUGUGCUACACAUCGUAUGUACCGAAUCGGGAAAAAAAGGGUGGGAAAGGGAAAGUAUUAUGUUACGCCGUUCGGAUCUGCACUUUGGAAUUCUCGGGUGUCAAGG	0.538
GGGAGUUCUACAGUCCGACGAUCUUCCCAAGAUGGCGGCGGACGUGUCCGUUACUCACCGGCCCCCGCUGAGCCCUAAGUCUGGGGCCGAAGUCGAAGCCGGCGAUGCCGCGGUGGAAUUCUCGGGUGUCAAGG	-2.43
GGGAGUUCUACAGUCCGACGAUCCUGUGCUACACAUCGUAUGUACCGAAUCGGGGCCCCCCGGGGCCCCCCGGGGCCCCCCGGGAAAGUAUUAUGUUACGCCGUUCGGAUCUGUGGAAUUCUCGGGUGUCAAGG	-1.11
